Assay results gathered from unrelated publications.
Compare with care: the assays were run in different laboratories. Several values in a cell are separate wells, animals, samples, runs or records. Numbers after ± are the reported error.
Chain of UniProt P29320 (whole entry, looked up): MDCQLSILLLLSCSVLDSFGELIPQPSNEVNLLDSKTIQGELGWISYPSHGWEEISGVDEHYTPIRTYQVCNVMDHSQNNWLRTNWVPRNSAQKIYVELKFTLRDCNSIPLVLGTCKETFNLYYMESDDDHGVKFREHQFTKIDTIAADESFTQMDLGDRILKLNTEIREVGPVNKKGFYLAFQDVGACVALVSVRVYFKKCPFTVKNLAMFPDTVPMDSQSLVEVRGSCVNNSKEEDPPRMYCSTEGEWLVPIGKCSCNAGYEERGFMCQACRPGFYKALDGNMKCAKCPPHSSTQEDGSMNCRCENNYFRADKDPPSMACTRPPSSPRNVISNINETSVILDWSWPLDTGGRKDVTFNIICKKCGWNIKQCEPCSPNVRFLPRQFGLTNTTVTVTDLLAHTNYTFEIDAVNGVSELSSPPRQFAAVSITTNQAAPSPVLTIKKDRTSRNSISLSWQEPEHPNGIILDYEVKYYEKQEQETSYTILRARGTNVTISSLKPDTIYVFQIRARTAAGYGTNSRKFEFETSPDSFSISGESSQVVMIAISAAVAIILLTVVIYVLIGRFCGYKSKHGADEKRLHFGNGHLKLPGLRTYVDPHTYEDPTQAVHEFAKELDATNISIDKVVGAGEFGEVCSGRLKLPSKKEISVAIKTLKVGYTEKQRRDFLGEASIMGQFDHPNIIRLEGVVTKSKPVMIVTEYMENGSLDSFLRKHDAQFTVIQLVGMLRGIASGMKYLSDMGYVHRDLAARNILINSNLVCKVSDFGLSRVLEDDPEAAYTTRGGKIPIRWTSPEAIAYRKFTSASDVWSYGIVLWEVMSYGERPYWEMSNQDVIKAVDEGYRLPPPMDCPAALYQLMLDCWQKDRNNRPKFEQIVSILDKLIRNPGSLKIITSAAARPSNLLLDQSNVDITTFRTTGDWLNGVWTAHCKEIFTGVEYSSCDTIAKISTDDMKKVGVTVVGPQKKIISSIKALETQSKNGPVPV

N[C@@H]1c2ccccc2OC12CCN(c1cnc3c(N4CCCc5ncccc54)n[nH]c3n1)CC2
incidence grade ≥3 serious TEAE (patients advanced metastatic solid tumours; oral, dose not given, all patients): 28.6%

Clc1ccc(-c2ccccc2)cc1
blood urea nitrogen (female Sprague-Dawley rats, serum; inhalation, 23 µg/rat, 2 h after exposure): 15 ± 5 mg/dL

COc1ccnc(C(=O)N[C@H]2COC(=O)[C@H](Cc3ccccc3)[C@@H](OC(=O)C(C)C)[C@H](C)OC2=O)c1OCOC(=O)C(C)C
Freundlich coefficient KF (soil adsorption; clay loam soil; pH 7.2, organic carbon 4.4 %): 137 mL/g

CO[C@H]1C[C@@H]2CC[C@@H](C)[C@@](O)(O2)C(=O)C(=O)N2CCCC[C@H]2C(=O)O[C@H]([C@H](C)C[C@@H]2CC[C@@H](OC(=O)NCCOCCOCCOCCOCCOCCOCCOCCOCCC(=O)N3CCc4cc(Cn5nc(-c6ccc7oc(N)nc7c6)c6c(N)ncnc65)ccc4C3)[C@H](OC)C2)C[C@@H](O)[C@H](C)/C=C(\C)[C@@H](O)[C@@H](OC)C(=O)[C@H](C)C[C@H](C)/C=C/C=C/C=C/1C
AE leading to dose interruption (patients with advanced solid tumours; intravenous, 16 mg weekly, grade 3 or higher): 75%

O=C1Nc2cc3[nH]nc(-c4ccncc4)c3cc2CN1Cc1ccccc1
patients with grade ≥3 TEAE (measured: blood ALP increased; patients with advanced solid tumours; intravenous, dose not given, schedules 1 and 2): 6%

Cc1cc(C)c(CNC(=O)c2cc(Cl)c3c(c2C)O[C@@](C)([C@H]2CC[C@H](N(C)C)CC2)O3)c(=O)[nH]1
Pneumonia incidence (human, relapsed/refractory NHL; concentration not given, treatment-related TEAEs, grade 5): 0%

CC[C@H](C)[C@H](NC(=O)[C@H](Cc1ccccc1)NC(=O)[C@H](CCC(=O)O)NC(=O)[C@H](CCCNC(=N)N)NC(=O)[C@H](C)NC(=O)[C@H](C)NC(=O)[C@H](CCC(N)=O)NC(=O)[C@H](CCC(=O)O)NC(=O)[C@H](CCC(=O)O)NC(=O)[C@H](CC(C)C)NC(=O)[C@H](Cc1ccc(O)cc1)NC(=O)[C@H](CO)NC(=O)[C@H](CO)NC(=O)[C@@H](NC(=O)[C@H](CC(=O)O)NC(=O)[C@H](CO)NC(=O)[C@@H](NC(=O)[C@H](Cc1ccccc1)NC(=O)[C@@H](NC(=O)CNC(=O)[C@H](CCC(=O)O)NC(=O)[C@H](C)NC(=O)CCc1c[nH]cn1)[C@@H](C)O)[C@@H](C)O)C(C)C)C(=O)N[C@@H](C)C(=O)N[C@@H](Cc1c[nH]c2ccccc12)C(=O)N[C@@H](CC(C)C)C(=O)N[C@H](C(=O)N[C@@H](CCCNC(=N)N)C(=O)NCC(=O)N[C@@H](CCCNC(=N)N)C(=O)N[C@@H](CCCCNC(=O)COCCOCCNC(=O)COCCOCCNC(=O)CC[C@H](NC(=O)CCCCCCCCCCCCCCCCC(=O)O)C(=O)O)C(=O)NCC(=O)NCC(=O)N[C@@H](CO)C(=O)N[C@@H](CCCCNc1c(NCCCCCN(O)C(=O)CCC(=O)NCCCCCN(O)C(=O)CCC(=O)NCCCCCN(O)C(C)=O)c(=O)c1=O)C(=O)O)C(C)C [zirconium-89 labelled]
tissue uptake (rat, liver; iv, 3 nmol/kg, 72 h, ex vivo): 0.91 %ID/g

OC[C@H]1OC(O)[C@H]([18F])[C@@H](O)[C@@H]1O (stereo partly drawn)
fraction of dose remaining (PET/CT; Sprague-Dawley rat, nasal cavity; intranasal, dose not given, 20 min; relative to: dose): ~50%

C[C@@H](NC(=O)N1C(=O)[C@H](Cc2ccnc(N)c2)[C@H]1C(=O)O)C1CCCCC1
incidence of decreased hemoglobin (healthy adult Chinese volunteers; continuous intravenous infusion, 1.5 mg/kg/h, 5-day infusion, CTCAE 5.0 grading): 0%

COc1cc(Nc2ncc(F)c(Nc3ccc4c(n3)NC(=O)C(C)(C)O4)n2)cc(OC)c1OC
IC50 (HMGCR (Homo sapiens, UniProt P04035)): > 10 µM

CC(C)(C(=O)NC1C2CC3CC1CC(C(N)=O)(C3)C2)N1CCN(c2ccc(C(F)(F)F)cn2)CC1 (stereo not drawn)
dose-normalised free AUC(0-24) (human, plasma; 50 mg once daily, 5 days, median): 1.19 (ng·h/mL)/mg

CC(C)C(=O)OC[C@H]1O[C@@H](n2ccc(NO)nc2=O)[C@H](O)[C@@H]1O
freeze-thaw stability (rat amniotic fluid dialysate; 5 ng/mL, low concentration, three cycles, with: NHC 25 ng/mL): 100 ± 2.57%

CNC(=O)c1cc(Oc2ccc(NC(=O)Nc3ccc(Cl)c(C(F)(F)F)c3)cc2)ccn1
MTD (patients with advanced solid tumours; once daily, days 1-21, every 3 weeks, with: gemcitabine, carboplatin): 400 mg

O=S(=O)(Nc1ccccc1)c1ccc(NC(=S)Nc2ccccc2)cc1
blood chemistry level (measured: CHOL; female mouse, blood; oral, 20 mg/kg daily, 14 days): 139 mg/dL

CC[C@H](C)[C@@H]1NC(=O)[C@@H]2CCCN2C(=O)[C@H](CC(C)C)NC(=O)[C@H](CC(C)C)NC(=O)CNC(=O)[C@@H](NC(=O)[C@@H](NC(=O)[C@H](CC(=O)O)NC(=O)CNC(=O)[C@@H](NC(=O)[C@H](C)NC(=O)CNC(=O)[C@H](CCCCN)NC(=O)[C@H](CC(C)C)NC(=O)[C@H](CC(C)C)NC(=O)[C@H](CCCCN)NC(=O)CNC(=O)[C@@H](NC(=O)[C@@H](N)CC(C)C)C(C)C)C(C)C)C(C)C)CSSC[C@@H](C(=O)O)NC1=O
log2 fold change (RNA-seq, measured: Irak3; mouse, traumatic brain injury model, frontal cortex and hippocampus; dose not given; relative to: TBI alone): -2.67

C[C@]1(CO)Cc2ncn(-c3ccc(C#N)c(Cl)c3)c2C(=O)O1
subjects with drug-related headache (human, Chinese; 20 mg single dose): 0%

Cc1ccc(F)c2cc(C(=O)N[C@@H]3CCC[C@H](N4CC[C@H](N(C)S(C)(=O)=O)C4)C3)[nH]c12
terminal half-life (CD1 mouse; oral, 100 mg/kg): 126 min

O=C(Nc1ccccc1)C1CCN(C(=O)Oc2cccnc2)CC1
subjects with Hypoaesthesia adverse event (adverse event reporting; healthy women; oral, 100 mg): 0%

C[C@@H]1NC(=O)[C@H](CCCCNC(=O)CO/N=C/C(=O)NCCCC[C@@H]2NC(=O)[C@@H](Cc3ccccc3)NC(=O)[C@H](CC(=O)O)NC(=O)CNC(=O)[C@H](CCCNC(=N)N)NC2=O)NC(=O)CNC(=O)[C@@H]2CCCN2C(=O)[C@H](CCCCNC(=O)CO/N=C/C(=O)NCCCC[C@@H]2NC(=O)[C@@H](Cc3ccccc3)NC(=O)[C@H](CC(=O)O)NC(=O)CNC(=O)[C@H](CCCNC(=N)N)NC2=O)NC(=O)[C@H](CCCCNC(=O)CCNC(=O)CCNC(=O)CCNC(=O)[C@H](CCCCN)NC(=O)[C@H](Cc2ccccc2)NC(=O)CNC(=O)CN2CCCNCCNCCCNCC2)NC(=O)[C@H](CCCCNC(=O)CO/N=C/C(=O)NCCCC[C@@H]2NC(=O)[C@@H](Cc3ccccc3)NC(=O)[C@H](CC(=O)O)NC(=O)CNC(=O)[C@H](CCCNC(=N)N)NC2=O)NC(=O)CNC(=O)[C@@H]2CCCN2C(=O)[C@H](CCCCNC(=O)CO/N=C/C(=O)NCCCC[C@@H]2NC(=O)[C@@H](Cc3ccccc3)NC(=O)[C@H](CC(=O)O)NC(=O)CNC(=O)[C@H](CCCNC(=N)N)NC2=O)NC1=O [copper-64 labelled]
tissue uptake (normal mice, spleen; intravenous, 0.74 MBq, 24 h post-injection): 2.35 ± 0.25 %ID/g

CCNCCCNC/C=C\CNCCCNCC
drug-related mucosal inflammation (human, advanced solid tumours; intravenous, dose not given; relative to: patients): 26.1%

Cn1ncc(-c2nc(N[C@H]3CC[C@H](N)CC3)ncc2Cl)c1CC1CC1
blood bilirubin increase incidence (phase I dose escalation; human patients; dose not given, treatment-related grade 3 or higher): 6.7%

O=C(O)CNCP(=O)(O)O
dose fraction in milk fat (whole cow milk; 2000 nM nominal): 1.07%

CC(C)CC(=O)OC[C@H]1O[C@@](C#N)(c2ccc3c(N)ncnn23)[C@H](O)[C@@H]1O
efflux ratio (Caco-2; 0.9 µM, 2 h): 2.88

O=C(c1ccc(F)c(F)c1Nc1ccc(I)cc1F)N1CC(O)([C@@H]2CCCCN2)C1
SAE leading treatment withdrawal (patients aged 2 to 6 years; oral, dose not given): 0%

CCc1ccc(CC/C=C/c2ccc3c(c2)C(=O)CC3)cc1
HDW (Sprague-Dawley rat, male; oral, 450 mg/kg/day, 14 days): 25.6 g/L

C[C@H]1CN(c2n[nH]c3nc(N[C@H]4CC[C@H](NS(=O)(=O)CCC(F)(F)F)CC4)ncc23)CCO1
relative abundance (EPHA3 (Homo sapiens, UniProt P29320); inhibitor, Kinobeads competition profiling; 20 µM; relative to: vehicle): 1.12

CC[C@H](C)[C@H](NC(=O)[C@H](CCCCN)NC(=O)[C@H](CCC(=O)O)NC(=O)[C@H](CCCCN)NC(=O)[C@H](CO)NC(=O)[C@H](CCCCN)NC(=O)[C@H](CCCNC(=N)N)NC(=O)[C@H](Cc1ccccc1)NC(=O)[C@H](Cc1ccccc1)NC(=O)[C@H](CC(=O)O)NC(=O)CNC(=O)[C@H](CC(C)C)NC(=O)[C@@H](N)CC(C)C)C(=O)NCC(=O)N[C@@H](CCCCN)C(=O)N[C@@H](CCC(=O)O)C(=O)N[C@@H](Cc1ccccc1)C(=O)N[C@@H](CCCCN)C(=O)N[C@@H](CCCNC(=N)N)C(=O)N[C@H](C(=O)N[C@H](C(=O)N[C@@H](CCC(N)=O)C(=O)N[C@@H](CCCNC(=N)N)C(=O)N[C@H](C(=O)N[C@@H](CCCCN)C(=O)N[C@@H](CC(=O)O)C(=O)N[C@@H](Cc1ccccc1)C(=O)N[C@@H](CC(C)C)C(=O)N[C@@H](CCCNC(=N)N)C(=O)N[C@@H](CC(N)=O)C(=O)N[C@@H](CC(C)C)C(=O)N[C@H](C(=O)N1CCC[C@H]1C(=O)N[C@@H](CCCNC(=N)N)C(=O)N[C@H](C(=O)N[C@@H](CCC(=O)O)C(=O)N[C@@H](CO)C(=O)O)[C@@H](C)O)C(C)C)[C@@H](C)CC)C(C)C)[C@@H](C)CC
remaining intact peptide (LC-MS; 50% pooled human serum; 40 µM, 60 min, pH 7.5, 37 °C; relative to: 0 h): 3.22% and 4.18%

N=C(N)NCCC[C@@H](NC(=O)[C@@H](N)Cc1ccccc1)C(=O)N[C@@H](Cc1ccccc1)C(=O)N[C@@H](CCCCN)C(N)=O
lag time (early Huntington's disease patients, plasma; subcutaneous, 25 mg, day 1, median): 0 h

COc1cc2c(Oc3ccc4[nH]c(C)cc4c3F)ccnc2cc1OCC1(N)CC1
hand-foot syndrome incidence (paediatric refractory sarcoma patients; 12 mg): 45.5%

CN1CC[C@@H](c2c(O)cc(O)c3c(=O)cc(-c4ccc(C(F)(F)F)cc4Cl)oc23)[C@@H]1CO
patients with adverse event (measured: Hyperglycemia; relapsed B-cell malignancies; oral, 100 mg, grade 3-4, intermittent dosing): 0%

O=c1cc(-c2ccccc2)oc2cc(O)ccc12
imiquimod metabolism (CD-1 mice, liver microsomes; 5 µM, with: imiquimod): decreased

CNC(=O)c1c(N(C)N=O)ncn1C
revertant colonies per plate (Escherichia coli; mutagenicity, Ames plate incorporation; WP2 uvrA pKM101; 150 µg/plate, without S9, methanol): 129 ± 12

CC(C)[C@@H]1NC(=O)CNC(=O)[C@H](CC(N)=O)NC(=O)[C@H](CCCNC(=N)N)NC(=O)[C@H](Cc2ccc(O)cc2)NC(=O)[C@H](C(C)C)NC(=O)[C@@H](NC(=O)[C@@H](NC(=O)[C@H](CC(N)=O)NC(=O)[C@H](Cc2c[nH]c3ccccc23)NC(=O)[C@H](C)NC(=O)[C@H](Cc2ccccc2)NC(=O)CN)C(C)C)CSSC[C@@H](C(=O)N[C@@H](Cc2cnc[nH]2)C(=O)N[C@@H](CCCNC(=N)N)C(=O)N[C@@H](CCCNC(=N)N)C(=O)N[C@@H](C)C(=O)N[C@@H](CC(N)=O)C(N)=O)NC(=O)[C@H](C(C)C)NC(=O)[C@H](CCCNC(=N)N)NC1=O
remaining peptide (HPLC; mouse mammary gland homogenate; 2560 µM, 4.00 h, 37 °C, 50 mg/mL tissue): 57.4% and 62% and 62.8%
